Assay results from different studies.
Protocols differ between the studies behind these lines. Several values in a cell are separate wells, animals, samples, runs or records. ± gives the spread as reported.
Sequence of UniProt Q8NER1 (whole entry, looked up): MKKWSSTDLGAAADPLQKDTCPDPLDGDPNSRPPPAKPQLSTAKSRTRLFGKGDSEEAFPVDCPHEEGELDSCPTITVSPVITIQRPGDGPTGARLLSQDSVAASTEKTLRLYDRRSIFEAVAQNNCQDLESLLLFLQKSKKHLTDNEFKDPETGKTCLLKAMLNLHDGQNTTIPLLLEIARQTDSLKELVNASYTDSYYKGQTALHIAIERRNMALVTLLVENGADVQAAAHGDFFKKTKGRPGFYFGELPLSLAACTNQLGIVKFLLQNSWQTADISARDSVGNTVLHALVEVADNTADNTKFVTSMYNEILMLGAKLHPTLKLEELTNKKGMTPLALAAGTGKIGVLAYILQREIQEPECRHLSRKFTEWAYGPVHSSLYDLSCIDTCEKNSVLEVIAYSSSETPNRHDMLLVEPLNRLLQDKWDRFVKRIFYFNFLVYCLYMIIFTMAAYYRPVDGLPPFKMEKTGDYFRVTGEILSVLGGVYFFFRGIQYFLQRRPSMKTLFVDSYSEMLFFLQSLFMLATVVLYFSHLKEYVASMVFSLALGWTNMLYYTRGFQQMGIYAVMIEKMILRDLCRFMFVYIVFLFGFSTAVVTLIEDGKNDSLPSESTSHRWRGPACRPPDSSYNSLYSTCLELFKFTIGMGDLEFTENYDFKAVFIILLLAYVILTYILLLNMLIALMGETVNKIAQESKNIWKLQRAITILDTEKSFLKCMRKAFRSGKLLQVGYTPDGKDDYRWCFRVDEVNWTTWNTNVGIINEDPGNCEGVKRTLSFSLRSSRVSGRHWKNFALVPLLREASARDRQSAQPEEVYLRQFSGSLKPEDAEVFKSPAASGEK
Sequence of UniProt P22736 (whole entry, looked up): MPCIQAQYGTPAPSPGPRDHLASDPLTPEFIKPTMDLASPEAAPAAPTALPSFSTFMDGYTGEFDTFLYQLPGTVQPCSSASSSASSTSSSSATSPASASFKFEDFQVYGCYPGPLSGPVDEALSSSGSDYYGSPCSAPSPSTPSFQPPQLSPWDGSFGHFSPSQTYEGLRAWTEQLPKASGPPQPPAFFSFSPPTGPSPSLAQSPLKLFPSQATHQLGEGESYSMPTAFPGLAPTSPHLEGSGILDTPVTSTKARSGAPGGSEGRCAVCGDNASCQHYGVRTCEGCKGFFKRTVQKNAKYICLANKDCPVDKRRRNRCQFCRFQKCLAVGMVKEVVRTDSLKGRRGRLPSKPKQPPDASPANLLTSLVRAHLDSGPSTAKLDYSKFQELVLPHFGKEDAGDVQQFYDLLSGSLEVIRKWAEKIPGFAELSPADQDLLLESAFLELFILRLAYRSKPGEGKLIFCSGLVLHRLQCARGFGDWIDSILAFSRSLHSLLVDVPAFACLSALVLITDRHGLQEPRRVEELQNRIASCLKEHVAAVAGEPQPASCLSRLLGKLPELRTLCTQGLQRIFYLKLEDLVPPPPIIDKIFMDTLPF
Sequence of UniProt Q92499 (whole entry, looked up): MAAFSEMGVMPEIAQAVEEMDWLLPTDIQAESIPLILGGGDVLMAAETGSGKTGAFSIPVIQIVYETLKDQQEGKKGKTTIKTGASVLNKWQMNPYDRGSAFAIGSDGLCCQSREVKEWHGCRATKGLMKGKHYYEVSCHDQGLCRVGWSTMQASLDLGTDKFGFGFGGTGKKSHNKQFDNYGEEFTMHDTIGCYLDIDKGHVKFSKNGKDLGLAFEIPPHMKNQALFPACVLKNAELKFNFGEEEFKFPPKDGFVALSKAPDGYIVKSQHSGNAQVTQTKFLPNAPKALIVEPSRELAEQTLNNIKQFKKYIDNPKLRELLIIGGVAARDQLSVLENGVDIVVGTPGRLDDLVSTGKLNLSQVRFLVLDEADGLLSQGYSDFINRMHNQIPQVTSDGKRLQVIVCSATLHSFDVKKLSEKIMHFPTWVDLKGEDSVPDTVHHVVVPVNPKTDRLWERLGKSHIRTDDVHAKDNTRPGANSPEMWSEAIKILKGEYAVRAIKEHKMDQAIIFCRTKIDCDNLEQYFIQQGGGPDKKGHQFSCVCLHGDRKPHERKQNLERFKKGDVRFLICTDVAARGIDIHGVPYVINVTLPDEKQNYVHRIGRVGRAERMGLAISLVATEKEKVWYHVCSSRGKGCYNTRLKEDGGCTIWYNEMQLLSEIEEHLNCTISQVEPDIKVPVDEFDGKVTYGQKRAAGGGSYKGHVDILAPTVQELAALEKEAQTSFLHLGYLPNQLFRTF
Sequence of UniProt P48729 (whole entry, looked up): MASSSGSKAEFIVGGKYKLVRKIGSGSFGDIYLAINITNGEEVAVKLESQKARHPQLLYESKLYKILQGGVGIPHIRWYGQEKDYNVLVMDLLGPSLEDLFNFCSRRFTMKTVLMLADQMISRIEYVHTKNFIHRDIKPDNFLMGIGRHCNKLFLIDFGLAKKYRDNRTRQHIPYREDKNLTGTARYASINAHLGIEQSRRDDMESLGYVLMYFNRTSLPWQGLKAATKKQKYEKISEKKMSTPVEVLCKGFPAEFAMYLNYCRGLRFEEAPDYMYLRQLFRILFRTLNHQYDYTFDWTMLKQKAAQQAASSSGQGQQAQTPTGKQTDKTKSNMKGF
Sequence of UniProt Q99814 (whole entry, unmodified, looked up): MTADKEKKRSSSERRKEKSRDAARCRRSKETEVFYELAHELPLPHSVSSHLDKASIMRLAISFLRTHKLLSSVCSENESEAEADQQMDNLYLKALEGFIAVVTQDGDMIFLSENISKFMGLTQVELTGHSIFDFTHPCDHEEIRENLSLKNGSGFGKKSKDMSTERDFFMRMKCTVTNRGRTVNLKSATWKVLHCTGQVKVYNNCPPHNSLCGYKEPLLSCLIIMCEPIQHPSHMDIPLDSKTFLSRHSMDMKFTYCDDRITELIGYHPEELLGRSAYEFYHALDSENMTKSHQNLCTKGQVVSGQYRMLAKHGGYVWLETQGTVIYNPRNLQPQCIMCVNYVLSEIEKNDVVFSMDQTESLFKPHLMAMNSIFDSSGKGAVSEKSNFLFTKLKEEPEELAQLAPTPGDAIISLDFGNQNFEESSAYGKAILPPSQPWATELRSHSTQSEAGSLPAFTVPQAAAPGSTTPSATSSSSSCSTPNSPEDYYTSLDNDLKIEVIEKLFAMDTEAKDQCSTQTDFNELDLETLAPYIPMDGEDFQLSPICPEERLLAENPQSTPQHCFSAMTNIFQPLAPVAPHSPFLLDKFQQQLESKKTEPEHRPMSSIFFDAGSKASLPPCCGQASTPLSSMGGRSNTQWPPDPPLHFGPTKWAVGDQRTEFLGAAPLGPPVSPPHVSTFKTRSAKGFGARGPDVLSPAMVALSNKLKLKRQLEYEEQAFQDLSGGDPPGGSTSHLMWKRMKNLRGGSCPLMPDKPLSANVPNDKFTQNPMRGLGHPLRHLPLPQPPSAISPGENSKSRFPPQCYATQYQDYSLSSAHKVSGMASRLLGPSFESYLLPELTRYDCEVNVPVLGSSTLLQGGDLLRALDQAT
Sequence of UniProt Q9ESG6 (whole entry, looked up): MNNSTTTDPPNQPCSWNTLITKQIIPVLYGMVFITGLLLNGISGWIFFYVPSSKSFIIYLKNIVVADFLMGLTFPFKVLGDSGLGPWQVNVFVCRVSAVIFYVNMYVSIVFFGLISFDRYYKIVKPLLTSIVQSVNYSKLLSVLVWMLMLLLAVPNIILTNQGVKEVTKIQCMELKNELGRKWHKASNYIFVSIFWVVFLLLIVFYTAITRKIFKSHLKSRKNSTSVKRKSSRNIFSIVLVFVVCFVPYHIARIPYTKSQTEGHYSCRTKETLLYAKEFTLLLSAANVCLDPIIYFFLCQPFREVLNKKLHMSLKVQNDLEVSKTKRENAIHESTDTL
Sequence of UniProt P25440 (whole entry, looked up): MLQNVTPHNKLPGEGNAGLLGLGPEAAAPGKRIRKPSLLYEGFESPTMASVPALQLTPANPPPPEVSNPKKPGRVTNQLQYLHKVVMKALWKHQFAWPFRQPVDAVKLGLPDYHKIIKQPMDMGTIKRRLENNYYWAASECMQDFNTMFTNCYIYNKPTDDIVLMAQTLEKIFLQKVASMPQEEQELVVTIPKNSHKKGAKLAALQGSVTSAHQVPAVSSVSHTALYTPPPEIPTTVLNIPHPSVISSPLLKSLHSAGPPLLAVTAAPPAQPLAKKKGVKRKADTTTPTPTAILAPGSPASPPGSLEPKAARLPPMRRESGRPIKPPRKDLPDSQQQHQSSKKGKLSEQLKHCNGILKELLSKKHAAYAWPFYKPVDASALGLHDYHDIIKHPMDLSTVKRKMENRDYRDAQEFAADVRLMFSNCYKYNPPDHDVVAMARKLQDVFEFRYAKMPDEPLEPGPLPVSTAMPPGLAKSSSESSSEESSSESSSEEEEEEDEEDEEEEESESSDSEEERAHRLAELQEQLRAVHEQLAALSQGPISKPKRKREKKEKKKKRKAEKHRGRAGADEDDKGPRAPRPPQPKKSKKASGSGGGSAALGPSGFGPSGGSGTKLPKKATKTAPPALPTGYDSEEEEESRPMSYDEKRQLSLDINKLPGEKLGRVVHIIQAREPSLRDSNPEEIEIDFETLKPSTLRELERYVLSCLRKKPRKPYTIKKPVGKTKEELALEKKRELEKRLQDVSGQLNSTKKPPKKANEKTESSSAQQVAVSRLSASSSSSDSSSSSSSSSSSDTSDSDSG
Sequence of UniProt Q96SW2 (whole entry, looked up): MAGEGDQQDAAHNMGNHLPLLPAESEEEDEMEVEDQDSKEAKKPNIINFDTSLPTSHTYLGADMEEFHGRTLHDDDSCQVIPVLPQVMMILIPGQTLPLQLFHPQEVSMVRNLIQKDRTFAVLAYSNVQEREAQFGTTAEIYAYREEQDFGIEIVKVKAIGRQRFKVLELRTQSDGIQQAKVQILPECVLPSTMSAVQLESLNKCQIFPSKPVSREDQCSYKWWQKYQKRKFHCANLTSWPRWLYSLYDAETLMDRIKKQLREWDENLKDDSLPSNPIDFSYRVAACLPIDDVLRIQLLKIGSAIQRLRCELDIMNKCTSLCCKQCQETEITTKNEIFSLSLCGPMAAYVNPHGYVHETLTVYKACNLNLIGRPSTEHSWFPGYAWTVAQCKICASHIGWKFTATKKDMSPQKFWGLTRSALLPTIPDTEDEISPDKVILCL

`CC(=C/C(=O)O)/C=C/C=C(\C)C1C=C2C(C)(C)CCCC2(C)O1` (stereo not drawn): “Pearson correlation coefficient” 0.76 (Rhodopsin (RHO, Homo sapiens, UniProt P08100, P23H); ER retention, immunostaining co-localization, measured: opsin with calnexin; COS-7 transfected P23H; 0.10 µM).
For `Cc1cccc(N2CC(C(=O)O)CC2=O)c1` (stereo not drawn), “log fold enrichment” read 0.125 (ATP-dependent RNA helicase DDX1 (Homo sapiens, UniProt Q92499); binding, affinity selection mass spectrometry; baseline: other proteins in batch).
With `O=[N+]([O-])c1cc(C(F)(F)F)ccc1NCc1ccco1` the TΔS was -0.3 ± 0.04 kcal/mol (Endothelial PAS domain-containing protein 1, PAS-B domain (EPAS1, Homo sapiens, UniProt Q99814); binding, ITC, reverse mode).
The binding stoichiometry of `CC(=O)N[C@H](C(=O)N1C[C@H](O)C[C@H]1C(=O)NCc1ccc(-c2scnc2C)cc1)C(C)(C)SCCCCCCNC(=O)C[C@@H]1N=C(c2ccc(Cl)cc2)c2c(sc(C)c2C)-n2c(C)nnc21` is reported as 0.858 ± 0.004 (Bromodomain-containing protein 2, BD1 (BRD2, Homo sapiens, UniProt P25440); ITC; concentration not given, 25 °C, compound in cell, protein in syringe).
`[O-][S+]1CCCCS1` (stereo not drawn): “SOD1 dimer fraction” 100% (SOD1 (Homo sapiens, UniProt P00441, G94A); LC-MS; human whole blood; 10000 µM, 1 h, 37 °C).
`COCCOCc1ccc(-c2cc3onc(-c4ccccc4)c3c(=O)n2C)cc1` gave an activation of 1.57 ± 0.18 fold (Nuclear receptor subfamily 4 group A member 1 (NR4A1, Homo sapiens, UniProt P22736); reporter gene, NBRE reporter full-length; 1 µM; baseline: vehicle).
`NC(=O)CC[C@H](N)C(=O)O` — result for binding: “no binding” (Uncharacterized protein (Pelagibacter ubique, UniProt Q4FMW4); isothermal titration calorimetry; Candidatus Pelagibacter ubique; concentration not given).
`O=c1cc(-c2ccc([N+](=O)[O-])cc2)[nH]c2c(-c3ccc(Cl)cc3)c(Cc3ccccc3)nn12` gave a kon of 4210 ± 24 M⁻¹ s⁻¹ (Sodium channel protein type 8 subunit alpha, C-terminal domain (SCN8A, Homo sapiens, UniProt Q9UQD0); binder, SPR).
`O=C(O)c1cc(-c2ccc(-c3c[nH]nn3)cc2)c2ccc(-c3ccc(C(F)(F)F)cc3)cc2c1` has an affinity ratio of 12 fold (P2Y purinoceptor 14 (Mus musculus, UniProt Q9ESG6); fluorescent tracer binding; HEK293 cells; baseline: human over mouse).
For `Oc1ccc(/C=C/c2cc(O)cc(O)c2)cc1`, “ΔG of binding” read -9.35 kcal/mol (O-methyltransferase (Sorghum bicolor, UniProt A0A1B6PFV1); concentration not given, with: MTA+).
`COc1cccc(C(=O)Nc2ccc3c(c2)CN(C2CCC(=O)NC2=O)C3=O)c1` (stereo not drawn): “degradation rate constant” 1.9 h⁻¹ (Cereblon/Casein kinase I alpha (CSNK1A1/CRBN, Homo sapiens, UniProt P48729+Q96SW2); degrader, live-cell HiBiT kinetic; HEK293 LgBiT; 10 µM).
For `COc1cc(CNC(=O)CCCC/C=C/C(C)C)ccc1O`, the calcium response was 7.59 a.u. and 8.7 a.u. and 8.21 a.u. and 8.62 a.u. (TRPV1 (Homo sapiens, UniProt Q8NER1); channel activation, FLIPR calcium; HEK293T; 0.0823 µM; higher = more activation).
